Results gathered from unrelated publications.
Compare with care: the assays were run in different laboratories. pIC50: −log10 of the molar value.
Organism: Trypanosoma brucei rhodesiense

N=C(N)c1ccc(-c2ccc(-c3ccc(C(=N)N)o3)s2)cc1  cured mice (STIB900, mice, acute infection model; intraperitoneal, 5 mg/kg for 4 days, parasite-free at 60 days): 50%
N=C(N)Nc1ccc(-c2ccc(-c3ccc(NC(=N)N)cn3)cc2)nc1  mean survival time (STIB900, mice; intraperitoneal, 20 mg/kg daily for 4 days): 20.2 days
O=[N+]([O-])c1ncn(CCCCN2CCN(Cc3ccc(C(F)(F)F)cc3)CC2)n1  pIC50 (growth; STIB900; bloodstream trypomastigotes): 5.22 to 6.30
Cc1ccc(Cn2cc(/C=C3\SC(=S)NC3=O)c3cc([N+](=O)[O-])ccc32)cc1  pIC50 (trypomastigotes, IL1501): < 4.15
N=C(N)c1ccc(-c2ccc(-c3ccc(C(=N)N)s3)s2)cn1  cured mice (STIB900, mice, acute infection model; intraperitoneal, 5 mg/kg for 4 days, parasite-free at 60 days): 0%
C#CCn1cc(C=O)c2cc([N+](=O)[O-])ccc21  pIC50 (trypomastigotes, IL1501): < 3.96
O=[N+]([O-])c1ncn(CCCN2CCN(c3ccncc3)CC2)n1  pIC50 (growth; STIB900 bloodstream trypomastigotes): 5.22 to 6.30
Cc1ccc(Cn2cc(/C=N/N3C(=O)CSC3=S)c3cc([N+](=O)[O-])ccc32)cc1  pIC50 (trypomastigotes, IL1501): < 4.24
N=C(N)c1ccc(C#Cc2ccc(-c3ccc(C(=N)N)o3)o2)cc1  cured mice (STIB900, mice, acute infection model; intraperitoneal, 5 mg/kg for 4 days, parasite-free at 60 days): 0%
